Assay results collected from several papers.
Lines come from different studies, so protocols differ. Numbers after ± are the reported error.

| SMILES | assay | test system | setting | how to read | endpoint | value |
| --- | --- | --- | --- | --- | --- | --- |
| O=C(O)CNC(=O)/C=C/c1ccccc1 | untargeted mass spectrometry | human normal subjects, plasma ultrafiltrate |  |  | unbound fraction in plasma | 4 ± 1% |
| CN1CC[C@@H](NC(=O)Nc2ccc(C#N)cc2)C[C@@H]1c1nc2ccccc2[nH]1 |  | human, severe hepatic impairment, fasted, plasma | oral, 100 mg single dose, geometric mean, fu × total |  | unbound AUC(0-last) | 962 ng·h/mL |
| CC1=C(CC(=O)O)c2cc(F)ccc2/C1=C\c1ccc([S+](C)[O-])cc1 (centres unmarked) |  | human, plasma | concentration not given |  | unbound Cmax | 2240 nM |
| CCN(CC)CCNC(=O)c1c(C)[nH]c(/C=C2\C(=O)Nc3ccc(F)cc32)c1C |  | human, cancer patients on NNRTI, plasma | oral, 50 mg/day |  | unbound fraction | 0.069 ± 0.021 |
| C=CCn1c(=O)c2cnc(Nc3ccc(N4CCN(C)CC4)cc3)nc2n1-c1cccc(C(C)(C)O)n1 |  | human glioblastoma patients, tumour | oral, 100, 200, 400 mg, median across doses and times |  | unbound tumour concentration | 24 ng/g |
| C/C=C(\C)C(=O)NCC(=O)O | untargeted mass spectrometry | human normal subjects, plasma ultrafiltrate |  |  | unbound fraction in plasma | 52 ± 19% |
| C[C@]12CC[C@H](O)CC1=CC[C@@H]1[C@@H]2CC[C@]2(C)C(c3cccnc3)=CC[C@@H]12 |  | human, plasma | concentration not given |  | unbound Cmax | 3.7 nM |
| Cc1cc(Nc2ncc(Cl)c(Nc3ccccc3S(=O)(=O)C(C)C)n2)c(OC(C)C)cc1C1CCNCC1 |  | human | oral, 750 mg/day | reference: median of 10 patients | unbound tumour and CSF concentration | > 10 fold |

A few entries again:
| SMILES | assay | test system | setting | how to read | endpoint | value |
| --- | --- | --- | --- | --- | --- | --- |
| O=C(O)CNC(=O)/C=C/c1ccccc1 | untargeted mass spectrometry | human normal subjects, plasma ultrafiltrate |  |  | unbound fraction in plasma | 4 ± 1% |
